Assay results collected from several papers.
A part holds a random share of what one study measured.

Sample 1
Target: Protein C-ets-1 (ETS1, Homo sapiens, UniProt P14921, residues 1-441, K379A, full length assumed)
Method: protein-binding microarray
Form: double-stranded DNA, one strand shown
Matrix: in vitro
Tested at: not given
Notes: k-mer, scored over probes, only values ≥0.25
Direction: higher = stronger binding
Quantity: E-score
Residues (chain): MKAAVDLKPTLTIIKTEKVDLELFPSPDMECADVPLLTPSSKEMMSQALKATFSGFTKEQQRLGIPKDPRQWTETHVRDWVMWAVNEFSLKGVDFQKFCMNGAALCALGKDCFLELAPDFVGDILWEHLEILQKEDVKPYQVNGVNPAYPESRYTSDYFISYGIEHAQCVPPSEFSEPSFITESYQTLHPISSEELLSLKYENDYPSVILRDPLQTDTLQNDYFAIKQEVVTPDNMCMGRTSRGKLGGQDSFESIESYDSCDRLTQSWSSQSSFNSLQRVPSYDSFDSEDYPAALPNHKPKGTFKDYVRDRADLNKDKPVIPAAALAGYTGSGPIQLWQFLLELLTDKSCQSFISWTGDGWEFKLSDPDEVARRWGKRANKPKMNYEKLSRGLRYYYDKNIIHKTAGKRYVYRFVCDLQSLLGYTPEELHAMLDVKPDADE
ACCGCCGG: 0.345
ACAGTTAA: 0.29
GCGGTACC: 0.308
ACCGGGGA: 0.385
CGGTTAGA: 0.305
TACCACAA: 0.329
ATGATACC: 0.257
ACCGGTGG: 0.371
GCCCTCCC: 0.255
CCGGTGTA: 0.414
CCGGTTCA: 0.311
TCCGTCAA: 0.3
CAATGTAA: 0.253
ACACATGA: 0.291
CGGGGTAA: 0.253
ACCGTCGC: 0.297
CCGGATGA: 0.285

Sample 2
Target: Centromere-binding protein 1, full length, N-terminal tag (CBF1, Saccharomyces cerevisiae, UniProt P17106, residues 1-351)
UniProt P17106, sequence (whole entry, looked up): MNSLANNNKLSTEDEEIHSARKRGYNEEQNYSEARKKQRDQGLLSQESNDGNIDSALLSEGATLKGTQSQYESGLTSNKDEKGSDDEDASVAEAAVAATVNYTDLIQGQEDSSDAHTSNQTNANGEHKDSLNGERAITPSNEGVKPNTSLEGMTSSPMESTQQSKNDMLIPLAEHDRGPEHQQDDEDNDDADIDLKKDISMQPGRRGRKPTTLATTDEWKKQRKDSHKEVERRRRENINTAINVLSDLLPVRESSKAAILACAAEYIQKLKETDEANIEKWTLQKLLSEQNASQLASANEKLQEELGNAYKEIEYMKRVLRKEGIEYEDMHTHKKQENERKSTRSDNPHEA
Method: protein-binding microarray
Form: double-stranded DNA, one strand shown
Matrix: in vitro
Tested at: 0.8 µM
Notes: whole 60-bp probe, no competitor
Direction: higher = stronger binding
Quantity: fluorescence intensity
Constant ends, left off below: … GTCTTGATTCGCTTGACGCTGCTG
CTAATAACACTTATCCACGCAACAGTAATGTGGTTC: 535 a.u.
CTAATAGAAGTATATCATATGATATTTCGAACTTTC: 704 a.u.
CTAGTAGTTCTGTGAAACGTGTACCCACAATAGTTC: 600 a.u.
GAACTCCACCATATTAACGTGTTATAGCTAATGTAG: 547 a.u.
CTAAAGTTACTCCATCATCTGACACCTAGAGACTTC: 725 a.u.
GAAACTTCTAGGTCCAATGTGACCATTTTGCAGTAG: 639 a.u.
TGTACGAAGCTATATAATGTCACTATAGTAGTTAGG: 541 a.u.
GAATTTTATTATGCACGTGTGATAGCATTATCTTAG: 9350 a.u.
GAAATAAGATAATTGCACATGCAAACAGTCAATTAG: 594 a.u.
CTAAAGAGGATGTGTCACCATGGTAGCAAAGATTTC: 529 a.u.
CTACAGGCCATTCGCCACGTTTTAAAACGAAGTTTC: 522 a.u.
CTATTTTTCCTCTGGCGCGTGAATAGCCCGCAGTTC: 566 a.u.
TGTACGAAGCTATGACTAGTCACTATAGTAGTTAGG: 529 a.u.
CTACAACCATGACGTGTTGTGTTTCTATTCAGCTTC: 538 a.u.
GAATATATATCACATCACGCCAAGCTTACGCATTAG: 704 a.u.
CTAAATTGGTTCCATCACCTTCTTTTCTGGTGTTTC: 562 a.u.
GAATATTTTATCGGAAACGTGTACCGTGAAATGTAG: 712 a.u.
CTAGTGACCACAATTCACCCCACAGGTGTGGCTTTC: 501 a.u.
CTAAGTTAGCGTTGTCACCCGGGAAGAAGAGAATTC: 516 a.u.
GAACGCGTTCCGTGACACGTTAAAGGATAATAGTAG: 936 a.u.
CTAAAAGTTTTGAATAACACGTGCCTTTGATTTTTC: 10800 a.u.
CTACTCAGCTATATCAACATCACGTTCTACCGCTTC: 1870 a.u.
GAAAATTTTAAGCATCACCCGGCATTAGCGTTTTAG: 513 a.u.
GAATTGCAAAAATACAGGGTGATGCGTATAAGTTAG: 526 a.u.
CTATGGAGCATGCGTACACGTGTGCGTATTCTATTC: 5100 a.u.

Sample 3
Target: RNA binding protein fox-1 homolog 2, RRM domain, GST-SBP tag (RBFOX2, Homo sapiens, UniProt O43251-10, residues 100-194)
Method: RNA Bind-n-Seq
Form: RNA
Matrix: in vitro
Tested at: 365 nM
Notes: natural RNA segment, single round, ends assumed
Relative to: no-protein control
Direction: higher = stronger binding
Quantity: RBNS enrichment (R)
Constant ends, left off below: GGGAGUUCUACAGUCCGACGAUC … UGGAAUUCUCGGGUGCCAA
Residues (chain): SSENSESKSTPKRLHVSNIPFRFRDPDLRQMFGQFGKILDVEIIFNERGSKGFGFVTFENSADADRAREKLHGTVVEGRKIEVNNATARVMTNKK
CUUUCUAAGGAGCUGGAUGGCAAGAGCUCUGGCUGAAGAAGCUCAACUCAGCACACACUCCUUCAGCCUGAGAUUUUUCAAAUCUUUGGCAACUGAGAUGGGAUGGAUCC: 0.244
UGCAUGUCACACCUCCUUUUCCUUUGCUUCACUUCUGUCAACUGUAGCGACUUUGGUGUGCAGUGAGAUGCUCACCUUUAGCCUCUGCUCCCCUAACUAGGCUGGCACUU: 1.3
GUAUGCAUACAUGCCCCUCACCCUACCCCAGGGACCAUGGUUCCUAGGAUCUCACUGCCUCCCUCUCUGGCCUUCCUGUCCCCUCCCUUCAGCUAUGACAGCUGGUGUGG: 0.322
UCCUUCCCAGCCCUACUGAAAAGCUUGUUUCUGGGGCCUCCUUCACGGAUUCAUAUGGUACCUUCCUUCUAAACUUGAGGAAGGCAUUUGUCUUCCGGCUGCUCAGGGCU: 4.63
CAGCAUGGAGCCCUCGGCUCCCCAGACUUUGCCGAGGGGCUGCUCCGGACCCCGUUGUGAGCCGGCCUCCUGUCUGCAUGCCCCCUGUGGCCACCAGGCUCCGAGGGGCC: 2.93
GAAGUAAUGUAUACUCUAGUAUUCUGGUGUUUUUAUAUUUAUGUAAUAAUUUCUUAAAACCAUUCAGACAGAUAACUAUUUAAUUUUUUUUAAGAAAGUUGGAAAGGUCU: 0.548
UUUCAUCUCACUCCCAUUGCAAAUCAAGGAGAUCUCAGCAGUGAACUGGGAAAAUACAAAAGCUCUGGGCUAAUCUAUAAAAACUUACCCUGAAAUAUUAAGGGCAGUUU: 0.676
GGAAGCUGGUGAAGUCCUGUUCUUAUUAUGAAUCCAUUCAUUCAAGAAAAUAGCCUGUUGCACAUUUCUCUGUUUCUUUGUGCCCUGCAAGCCCUGCCCCCAAGACCUAG: 3.17
GUAGAGAAGAGGCACGCUUAUGACUAUUGUUCAAAUACAUAAAAACAGUUAUUUUAAAACAGUCCACAAGAGGGGUGUCUAGUUUUCAGAGACACUUCAGAAACUUUGCU: 0.554
UCCUAUGAAACAGUCCACUGGCAGGCUGGAGAUAUCUUACACUUUGAAGUUAUAUAUAUAUAAAACAAGUGUCUAUUUCUAGCUGAAAGAGUUUACCUCUUCUAGACAUU: 0.364
AUCCAAAACAAACUCCAUCCCCCCCAAGGCAGCCCAAAUAUCCAGAAACGGGCUCACCUGGACUAUAGAAUUUCUGCUGGUCAGAUAAAGACAGCAUUCCUCGGGAACCC: 0.673
CCUUCAAGAAAUGGACCCCUCCUCGGUCACCUUUUAAUCUUGUUCAAGAAAUACUUUUCCAUGACCCAUGGAAGCUCCUCAUCGCGACUAUAUUUCUCAAUCGGACCUCA: 0.341

Sample 4
Target: Interferon regulatory factor 7, full length, phosphomimetic (IRF7, Homo sapiens, UniProt Q92985, residues 1-503, S471D/S472D/S475D/S476D/S477D/S483D/S484D/S487D)
UniProt Q92985, sequence (whole entry, unmodified, looked up): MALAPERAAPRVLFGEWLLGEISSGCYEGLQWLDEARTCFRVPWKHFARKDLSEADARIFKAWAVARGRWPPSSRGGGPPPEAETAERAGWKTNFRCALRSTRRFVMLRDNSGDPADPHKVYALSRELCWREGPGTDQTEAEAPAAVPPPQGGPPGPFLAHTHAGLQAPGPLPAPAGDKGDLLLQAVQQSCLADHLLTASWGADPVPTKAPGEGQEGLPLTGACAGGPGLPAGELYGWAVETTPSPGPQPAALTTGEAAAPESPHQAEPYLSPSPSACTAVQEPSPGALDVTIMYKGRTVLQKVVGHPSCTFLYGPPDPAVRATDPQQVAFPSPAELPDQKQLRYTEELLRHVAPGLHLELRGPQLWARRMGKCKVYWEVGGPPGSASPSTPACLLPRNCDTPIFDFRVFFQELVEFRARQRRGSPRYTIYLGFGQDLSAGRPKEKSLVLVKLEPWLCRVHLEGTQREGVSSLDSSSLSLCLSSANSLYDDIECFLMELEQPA
Method: protein-binding microarray
Form: double-stranded DNA, one strand shown
Matrix: in vitro
Tested at: 2200 nM top
Notes: 60-bp whole probe
With: salmon DNA 0.4 mg/ml
Relative to: random background probes
Direction: higher = stronger binding
Quantity: fitted relative affinity
Constant ends, left off below: GCCTAGCAC … GTCTTGATTCGCTTGACGCTGCTG
TTAGGTCTCGGCCTCGGTTAGTGCTAG: 0.0303 z-score
TTCGGTTTCCTTCTCCTTTAGTGCTAG: 4.91 z-score
GACGGTATCCACTTTCGGGACGTGCTA: 5.16 z-score
TTAGGTCTCCTTCTCCTCTAGTGCTAG: 0.992 z-score
CACGATCTCAGACTGGAGACGTGCTAG: 0.455 z-score
GGCGATTTCAGTCTCGAGACGTGCTAG: 0.502 z-score
GCCTCTAGGTTTTCTGGAGACGTGCTA: 0.268 z-score
GACGGTATCTTTTTCCTGACGTGCTAG: 0.962 z-score
TTTGCTTTCCTTCTTGAACTGTGCTAG: 3.47 z-score
CTGTTTTTGCTTTCTTTATGGTGCTAG: 5.2 z-score
CATTTTCTGAATGTCCTCCTGTGCTAG: 4.98 z-score
GACGGTCTCGGTTACGGGACGTGCTAG: -0.0641 z-score
TTAGGTTTCGGGTAACGGTTAGTGCTA: 5.13 z-score
CAGCGCGCAGCTGCCAGAACGTGCTAG: -0.434 z-score
GACTGTTCCGGTTTCGGGACGTGCTAG: 5.11 z-score
GCAACACTCACCATGGCTAGGTGCTAG: 0.638 z-score
TCACATATACACTGTGTATCTGTGCTA: 1.27 z-score
TTAGATTTCAGTACCGATTAGTGCTAG: 0.494 z-score
TTAGGACTGCTTTTCCTGTAGTGCTAG: 0.683 z-score
TCATTTTCATATATATAACTGTGCTAG: 2.89 z-score
TTAGACTTCAGTTTCGATTAGTGCTAG: 5.81 z-score

Repeated from above (sample 4):
TTAGACTTCAGTTTCGATTAGTGCTAG: 5.81 z-score
TCATTTTCATATATATAACTGTGCTAG: 2.89 z-score
GCCTCTAGGTTTTCTGGAGACGTGCTA: 0.268 z-score
TTAGGTCTCGGCCTCGGTTAGTGCTAG: 0.0303 z-score
TTAGGTCTCCTTCTCCTCTAGTGCTAG: 0.992 z-score
TTAGGACTGCTTTTCCTGTAGTGCTAG: 0.683 z-score
CAGCGCGCAGCTGCCAGAACGTGCTAG: -0.434 z-score
GGCGATTTCAGTCTCGAGACGTGCTAG: 0.502 z-score
GACGGTATCTTTTTCCTGACGTGCTAG: 0.962 z-score
TTAGATTTCAGTACCGATTAGTGCTAG: 0.494 z-score
